# Published values gathered from unrelated publications.
# A part holds a random share of what one study measured. Changes are numbered by the printed parent chain.

# Set 1
# Target: Fragile X messenger ribonucleoprotein 1, C-terminal low-complexity region (Fmr1, Mus musculus, UniProt P35922)
# Technique: RNA Bind-n-Seq
# Form: RNA
# Medium: in vitro
# Concentration: 200 nM
# Notes: whole 134-nt RNA, ends assumed
# Added: 150 mM LiCl
# Reference: input library
# Reading: higher = stronger binding
# Each molecule: 7-deaza-guanosine replaces G
Strand,log2 enrichment
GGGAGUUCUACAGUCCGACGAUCACCAUGCAGGUGGGCAUCUUUGGGAAGUAAAGCAAGGGGGGGAUAGGGAGGGGGGUAACACUUUGGGAACAGGUGGUCCCAGGUCGUUUCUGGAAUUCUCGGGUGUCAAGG,1.19
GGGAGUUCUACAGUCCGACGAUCGUCCUGUGCUACACAUCGUAUGUACCGAAUCGGGGAAAAAGGGGUUUGGGGAAAGGGGAAAGUAUUAUGUUACGCCGUUCGGAUCUGCACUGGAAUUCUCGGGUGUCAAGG,-1.3
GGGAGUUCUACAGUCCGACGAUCAGUCCUGUGCUACACAUCGUAUGUACCGAAUCGGGAAAGGGUUUUUUUGGGUUUGGGAAAGUAUUAUGUUACGCCGUUCGGAUCUGCACUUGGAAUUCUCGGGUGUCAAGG,-2.08
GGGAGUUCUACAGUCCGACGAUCGUGCUACACAUCGUAUGUACCGAAUCGGGGAAAAAAAGGGGAAAAAAAGGGGUUUUUUUGGGGAAAGUAUUAUGUUACGCCGUUCGGAUCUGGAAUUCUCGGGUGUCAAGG,-0.649
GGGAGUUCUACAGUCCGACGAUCCUCAAGUCCUGUGCUACACAUCGUAUGUACCGAAUCGGUUUGGUUUUUGGUGGAAAGUAUUAUGUUACGCCGUUCGGAUCUGCACUUCCAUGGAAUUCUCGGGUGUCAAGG,0.136
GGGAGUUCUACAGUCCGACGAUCACCAUGCAGGUGGGCAUCUUUGGGAAGUGGGGCAAGGGGGGGAUAGGGAGGGGGGUAACACUUUGGGAACAGGUGGUCCCAGGUAGUUUCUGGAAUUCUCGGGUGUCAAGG,0.864
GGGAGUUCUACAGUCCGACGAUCAAGUCCUGUGCUACACAUCGUAUGUACCGAAUCGGAAAAGGAAAAGGGAAAAGGGGAAAGUAUUAUGUUACGCCGUUCGGAUCUGCACUUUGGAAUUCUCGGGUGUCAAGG,-0.558
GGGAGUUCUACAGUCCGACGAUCUGGCCCUGGUGGCAUGCGGGGAGGAAGAGGUGGCCUCAUGCAUCGUGGUGGUCCCGGUGGAAUGUUCAGAGGUGGCCGUGGUGGAGACAGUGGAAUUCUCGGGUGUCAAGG,-0.421

# Set 2
# Target: CCNA1, cyclin fold, Cln2 fusion (human)
# Technique: yeast growth competition, sequencing
# Medium: yeast
# Notes: weak parent motif
# Reference: not given
# Reading: higher = stronger binding
# Starting sequence: CDKN1B docking peptide (human); PSACRNLFGPVDH; partner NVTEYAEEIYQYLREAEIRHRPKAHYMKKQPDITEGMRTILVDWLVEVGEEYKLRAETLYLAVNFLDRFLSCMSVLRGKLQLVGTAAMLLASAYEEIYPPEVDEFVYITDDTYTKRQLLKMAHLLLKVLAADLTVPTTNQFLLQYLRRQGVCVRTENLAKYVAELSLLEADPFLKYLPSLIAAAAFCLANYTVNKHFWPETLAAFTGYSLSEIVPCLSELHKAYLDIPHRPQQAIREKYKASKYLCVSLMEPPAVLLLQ
Change,normalised enrichment score
H13I,0.395
P1Y,0.216
P1Q,0.396
A3K,0.171
S2D,0.225
D12N,0.372
G9Y,0.453
A3L,0.339
F8D,0.178
C4H,0.277
L7P,-0.0194
P10Y,0.606
F8H,0.397
N6C,0.315
H13P,0.304
P1F,0.331
L7T,0.102
F8R,0.151
L7C,-0.104
H13M,0.214
D12H,0.0448
R5G,0.23
R5F,0.226
N6H,0.337

# Set 3
# Target: RNA binding protein fox-1 homolog 2, RRM domain, GST-SBP tag (RBFOX2, Homo sapiens, UniProt O43251-10, residues 100-194)
# Technique: RNA Bind-n-Seq
# Form: RNA
# Medium: in vitro
# Concentration: 365 nM
# Notes: natural RNA segment, single round, ends assumed
# Reference: no-protein control
# Reading: higher = stronger binding
# Target sequence (chain): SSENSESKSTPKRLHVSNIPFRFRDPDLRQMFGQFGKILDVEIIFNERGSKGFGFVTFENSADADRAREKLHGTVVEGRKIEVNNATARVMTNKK
Strand,RBNS enrichment (R)
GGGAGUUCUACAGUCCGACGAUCGACUCAUAUCCAAUGGCUCCUAAGUGUUUGUCCUGUGCAAUAUACAGCCCAGGGAGGGAAGGGAAGCACGGCGAGGAGGGUGGGAAAGGUUCUCCCUCAGCCCACUAGCCUGGAAUUCUCGGGUGCCAA,1.78
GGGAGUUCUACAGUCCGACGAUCGCUGUUCCAGCUUUGCAUUUCUGUCAAGUAGAGGCGAAUAUAUAAACAGUGUGGUUGAAUACAUUUAAUGCCAGCCAUUGGAAACUAGUUUUAGGCAACCACUCUCAAAAUGGAAUUCUCGGGUGCCAA,0.28
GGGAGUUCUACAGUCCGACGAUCACUGGGCUGGCAAUUGUCUGAACACUUGGGUUCAGUUGAAAUAUAUGUAUUUUGGCCAAAAGCCAGCAGCACUUCACAAAAACAAAACACAAACCUAAGCUAACAAAAUGUGGAAUUCUCGGGUGCCAA,0.452
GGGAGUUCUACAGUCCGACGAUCCUUGGGGAAGAUUUUUCACGCAGCCCUAAGUGCCCAAGCACAUUUUCCCUGGUUGCCUCCUGGGCCCCAUGUGGCCAGCAGAUGCUGGAGUCUGCCUGCUCAGACUAUCAUGGAAUUCUCGGGUGCCAA,0.299
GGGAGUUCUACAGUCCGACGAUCAGUAUUGUCUCUUAGUUAAGUAUGAUUUAUUAACCCAGUGGAGCACUGUCUGCUUUUAAAUUGUCACAUUAGAAUUUGUUCUACCAAUGUUUUGGGUUCUGUUGCGCUAUUGGAAUUCUCGGGUGCCAA,0.617
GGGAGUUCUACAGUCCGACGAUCCUCUGGGACGGGGCACACACAGGCCCAGCCUCUGUGCUGUCUCCUCCUCCGUGCGCCUCAGACUCGGGGUGAGGGAGGCGGGCAGCCUCUCGCCAGCCUUCCCGUCCUUCUGGAAUUCUCGGGUGCCAA,0.244
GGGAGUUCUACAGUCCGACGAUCAGGAGUUUGGGAUUUUGGCAAAGACCAAAUACUUUCAAAUGUUGAAGAUGCAUGCGAUGAAUACCAACAAUAUCACUGAGCUAGUGAACUAUUUGGCAAAUGACUUAAGGUGGAAUUCUCGGGUGCCAA,17.5
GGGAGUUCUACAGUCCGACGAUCCCUCUCCUGUCCCCGCCGGGCAGUGUCACUGAGUCCUUGAAAUCCUCCCCUGCCCCGCGGGUCUCUGGAUUGGGACGCACAGUGCAGUUGAGGUCUGCGUCGGGCUUGGCUGGAAUUCUCGGGUGCCAA,0.373

# Set 4
# Target: RING finger protein unkempt homolog, zinc fingers 1-6, GST-SBP tag (UNK, Homo sapiens, UniProt Q9C0B0, residues 30-357)
# UniProt Q9C0B0, sequence (30-357, looked up): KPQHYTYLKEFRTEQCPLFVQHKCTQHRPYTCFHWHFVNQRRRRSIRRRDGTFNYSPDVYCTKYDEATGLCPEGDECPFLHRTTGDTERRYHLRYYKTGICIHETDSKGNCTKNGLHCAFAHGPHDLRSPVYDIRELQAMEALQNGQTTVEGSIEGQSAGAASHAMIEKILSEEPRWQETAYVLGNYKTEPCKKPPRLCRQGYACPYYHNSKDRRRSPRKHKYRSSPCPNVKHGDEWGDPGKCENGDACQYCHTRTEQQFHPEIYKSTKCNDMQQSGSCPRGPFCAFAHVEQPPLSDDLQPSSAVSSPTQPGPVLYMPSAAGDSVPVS
# Technique: RNA Bind-n-Seq
# Form: RNA
# Medium: in vitro
# Concentration: not given
# Notes: RNA with constant flanks, ends assumed
# Reference: input RNA pool
# Reading: higher = stronger binding
Strand,bound/input enrichment [ratio]
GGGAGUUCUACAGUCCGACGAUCUAACCUUAACAAACGGAUCAGCUAUCUCUACAAACACUUUAACCGACAUGGGAAGUACAGACCGGACGGGAAAUGUGUCACCCUGGAGAAGGGGAACAGGACUUAUCCCAGCAAGGAGAGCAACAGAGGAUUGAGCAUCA,0.205
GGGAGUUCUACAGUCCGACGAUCCCUGAAACUUCCUGCGGUAGCUCCCUCCCUUCAGAGUUACAUCAUUAUCCUGACUCUGUGCCGGUAAAUUUCCGUGAAAUUUUUGUACAAAAAAAAAGGUAAUGAAAGAACGUUGCAAAGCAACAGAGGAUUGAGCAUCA,0.275
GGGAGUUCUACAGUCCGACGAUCAAAUCAGAACGUCCAUGUGAUGAAGACAAGACUGAUUCAGAGACAGGAAAGUUGAUCAUGUCCGUCAAUGAGUUUUAUUAUGGAAGGCAUGAAGGAGUCACUGAGAAAGAGCCAAAGACUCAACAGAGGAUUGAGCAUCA,0.201
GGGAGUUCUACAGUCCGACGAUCCUUACUCAUCAUUUAAAAACUAUAUUUACAGAAGAUGUUUGGUUGCUGGGGGGGCUUUUUCCGGUUUUGGGGCAUUUGUUUUUUGUAAAUAAGAUGAUUAUGCUUUGUGGCUAUCCAUCACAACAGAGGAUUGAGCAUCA,0.517
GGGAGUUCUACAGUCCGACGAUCGAUGGACUACAUUUGUCUCCAAAGGGGAAUGAAUUUUUGUUCUCGCAUCUCUGGCCUUUGACCGAGAAAAAGGUCUCUUCUCUACCUUUGCUGCUUCCUUACUGGCGGGAUGUAGCAGAACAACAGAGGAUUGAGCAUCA,0.147
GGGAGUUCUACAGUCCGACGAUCUCCCUAAAGAUAAUUGGAAGACUUCAUUGGAUUGAUAGAGAGAAACUGCGUAAUUUCAUUUCCGCAUGUCAAGAUGAAGAAACGGGGGGAUUUGCAGACAGGCCAGGAGAUAUGGUGGAUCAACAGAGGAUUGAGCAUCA,0.587
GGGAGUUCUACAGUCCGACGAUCGAGGGUUGUGAUGUUUGGGGCUGGGAAUGUUUUUGGUAGAAUAAUGGUACAGCUUUUGGCCCGUUUCCUUGUCAAUUGCCAGUGCUGGGAGAAAGAAAUCCCAUGGAAACACAUACCAGUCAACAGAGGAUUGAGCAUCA,0.77
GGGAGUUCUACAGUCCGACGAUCGAGUUCCGUUCUGGAAAGGCACCCAUCCUUAUUGCUACAGAUGUAGCCUCCCGUGGGCCCGAUGUGGAAGAUGUCAAGUUUGUGAUCAACUAUGACUAUCCAAACAGCUCAGAGGAUUAUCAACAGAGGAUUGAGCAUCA,0.118

# Some of these lines once more (set 4):
Strand,bound/input enrichment [ratio]
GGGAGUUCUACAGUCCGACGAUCCUUACUCAUCAUUUAAAAACUAUAUUUACAGAAGAUGUUUGGUUGCUGGGGGGGCUUUUUCCGGUUUUGGGGCAUUUGUUUUUUGUAAAUAAGAUGAUUAUGCUUUGUGGCUAUCCAUCACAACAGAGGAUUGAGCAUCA,0.517
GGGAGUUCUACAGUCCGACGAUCGAGGGUUGUGAUGUUUGGGGCUGGGAAUGUUUUUGGUAGAAUAAUGGUACAGCUUUUGGCCCGUUUCCUUGUCAAUUGCCAGUGCUGGGAGAAAGAAAUCCCAUGGAAACACAUACCAGUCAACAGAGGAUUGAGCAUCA,0.77
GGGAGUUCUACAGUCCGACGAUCUAACCUUAACAAACGGAUCAGCUAUCUCUACAAACACUUUAACCGACAUGGGAAGUACAGACCGGACGGGAAAUGUGUCACCCUGGAGAAGGGGAACAGGACUUAUCCCAGCAAGGAGAGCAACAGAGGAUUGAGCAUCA,0.205
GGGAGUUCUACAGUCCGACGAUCCCUGAAACUUCCUGCGGUAGCUCCCUCCCUUCAGAGUUACAUCAUUAUCCUGACUCUGUGCCGGUAAAUUUCCGUGAAAUUUUUGUACAAAAAAAAAGGUAAUGAAAGAACGUUGCAAAGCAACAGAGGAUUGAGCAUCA,0.275
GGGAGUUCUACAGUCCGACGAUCGAUGGACUACAUUUGUCUCCAAAGGGGAAUGAAUUUUUGUUCUCGCAUCUCUGGCCUUUGACCGAGAAAAAGGUCUCUUCUCUACCUUUGCUGCUUCCUUACUGGCGGGAUGUAGCAGAACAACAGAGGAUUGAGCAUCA,0.147
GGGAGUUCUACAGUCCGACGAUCAAAUCAGAACGUCCAUGUGAUGAAGACAAGACUGAUUCAGAGACAGGAAAGUUGAUCAUGUCCGUCAAUGAGUUUUAUUAUGGAAGGCAUGAAGGAGUCACUGAGAAAGAGCCAAAGACUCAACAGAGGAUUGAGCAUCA,0.201
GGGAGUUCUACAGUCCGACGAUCGAGUUCCGUUCUGGAAAGGCACCCAUCCUUAUUGCUACAGAUGUAGCCUCCCGUGGGCCCGAUGUGGAAGAUGUCAAGUUUGUGAUCAACUAUGACUAUCCAAACAGCUCAGAGGAUUAUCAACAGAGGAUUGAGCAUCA,0.118
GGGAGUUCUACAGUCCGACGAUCUCCCUAAAGAUAAUUGGAAGACUUCAUUGGAUUGAUAGAGAGAAACUGCGUAAUUUCAUUUCCGCAUGUCAAGAUGAAGAAACGGGGGGAUUUGCAGACAGGCCAGGAGAUAUGGUGGAUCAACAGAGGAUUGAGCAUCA,0.587
